# Published values of several laboratories.
# A part holds a random share of what one study measured.

# Sample 1 — method: RNA Bind-n-Seq; molecule type: RNA; sample: in vitro; tested at: 365 nM; relative to: no-protein control; reading: higher = stronger binding
# Target: RNA binding protein fox-1 homolog 2, RRM domain, GST-SBP tag (RBFOX2, Homo sapiens, UniProt O43251-10, residues 100-194)
# Setting: natural RNA segment, single round, ends assumed
# Target sequence (chain): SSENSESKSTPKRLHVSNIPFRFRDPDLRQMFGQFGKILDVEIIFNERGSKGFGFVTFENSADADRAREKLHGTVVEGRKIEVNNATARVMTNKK
Oligonucleotide,RBNS enrichment (R)
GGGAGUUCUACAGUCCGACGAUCUGCCCUCGGCUGGAGUUCCUUUCUCACCCCUGUGAUUUGGAGGUGUGGAGAAGGGGAAGGGAGGGACAGCUCACUGGUUCCUUCUGCAGUACCUCUGUGGUUAAAAAUGGUGGAAUUCUCGGGUGCCAA,0.548
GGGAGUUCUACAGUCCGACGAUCAAUGGAGGGGAAAAAGGCCACAGCAAUCUGUACUACAAUCAACUUUAUUUUGAAAUCAUGUAAAAUAAGAUAUUAGACUGUUUUUUGAAUAAAAUAUUUUUAUUGAUUGAUGGAAUUCUCGGGUGCCAA,0.511
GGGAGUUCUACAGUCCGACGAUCUGGCACCCAGAGCUUCUGUUAACUUGAGCCGGGAGCUGGGUUCUUUAGCAAGAUGAGCUUCUGGGGUCCUUAUGUUGGUAAUGGUGCCAUGUCCAGACCCACAGCAGAGUUGGAAUUCUCGGGUGCCAA,0.62
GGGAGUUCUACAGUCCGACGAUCCUUUUAGAAUAAAGCUGCUACUUUAACAGAGCACCUGGCGUGGGCCAAGUGCCUGAUACUCCCUUACACUGAAUCAUGUUAUGAUUUAUAGAAAUACCUUUCCUGUAGCUUGGAAUUCUCGGGUGCCAA,0.391
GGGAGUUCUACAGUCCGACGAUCAUCCACGGGACAAAAACAGCAAACUCCCUCAGACUUUGUCCAUGUAUAAACUUGAAGUGGUUGUGUUGUAGGGUUGCAGGUUUUUUGUUACGCUGCUGUCACUUUCUGUCUGGAAUUCUCGGGUGCCAA,0.662
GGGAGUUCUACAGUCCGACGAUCUGGCAUGUUAGUGAGGAGUUCUGAUAUUAAGCACACACACACAUGCACACAAAUGGACUUCUCUGAAGCUGUGUUUAGUGAAAUGAGCUCAAGUACAUGAAUGUUAGUUGUGGAAUUCUCGGGUGCCAA,3.14
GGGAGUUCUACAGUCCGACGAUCGAGGGGUGGGAGCCCUUAAGAACUAUUGAUGUGGCCUUAAAUUACUGUCAUUUAUUAUCCUAAAGAAGAAAACAUAAUAACCAUAAUGGGCUCUCAACUCAACUCCCUUUUGGAAUUCUCGGGUGCCAA,0.53
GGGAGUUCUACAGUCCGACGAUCUACUCAUGGGUGGAGGAGACCAGUGCCGACCCCGUGAGAGCUGAAGGUGAUGCUGAGGUCCCUUGUGGAAGCCUCUCUUGGGAAUCUCAACUGCAGAGGAGCUGCCCUCUUGGAAUUCUCGGGUGCCAA,0.248
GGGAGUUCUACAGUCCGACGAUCCUGACUCCGCCCUUCUUCCUUAGUACGUAGUAUCCAGCAAGCAUUUGCCCCACCUUGUCUUGUUGAUGAACAAUAUUAUGAAGCCUGCAGUCAUUCUCUCUGUACAUCAGUGGAAUUCUCGGGUGCCAA,0.844
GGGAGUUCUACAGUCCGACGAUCUGGGGAUUUUAAGCUUUCUGUUAAAUACUUGCAGAAAAAAUAGCAAGUACGAUUUGACAGUAGUACAAUAACCUGUGCCCAAAACACAAGAAAUACAGAGUAAAGCGAAAUGGAAUUCUCGGGUGCCAA,0.323

# Sample 2 — method: universal PBM; molecule type: double-stranded DNA, one strand shown; sample: in vitro; tested at: 600 nM; reading: higher = stronger binding
# Target: Sal-like protein 4, full length isoform A (SALL4, Homo sapiens, UniProt Q9UJQ4, residues 1-1053)
# Chain of UniProt Q9UJQ4 (whole entry, looked up): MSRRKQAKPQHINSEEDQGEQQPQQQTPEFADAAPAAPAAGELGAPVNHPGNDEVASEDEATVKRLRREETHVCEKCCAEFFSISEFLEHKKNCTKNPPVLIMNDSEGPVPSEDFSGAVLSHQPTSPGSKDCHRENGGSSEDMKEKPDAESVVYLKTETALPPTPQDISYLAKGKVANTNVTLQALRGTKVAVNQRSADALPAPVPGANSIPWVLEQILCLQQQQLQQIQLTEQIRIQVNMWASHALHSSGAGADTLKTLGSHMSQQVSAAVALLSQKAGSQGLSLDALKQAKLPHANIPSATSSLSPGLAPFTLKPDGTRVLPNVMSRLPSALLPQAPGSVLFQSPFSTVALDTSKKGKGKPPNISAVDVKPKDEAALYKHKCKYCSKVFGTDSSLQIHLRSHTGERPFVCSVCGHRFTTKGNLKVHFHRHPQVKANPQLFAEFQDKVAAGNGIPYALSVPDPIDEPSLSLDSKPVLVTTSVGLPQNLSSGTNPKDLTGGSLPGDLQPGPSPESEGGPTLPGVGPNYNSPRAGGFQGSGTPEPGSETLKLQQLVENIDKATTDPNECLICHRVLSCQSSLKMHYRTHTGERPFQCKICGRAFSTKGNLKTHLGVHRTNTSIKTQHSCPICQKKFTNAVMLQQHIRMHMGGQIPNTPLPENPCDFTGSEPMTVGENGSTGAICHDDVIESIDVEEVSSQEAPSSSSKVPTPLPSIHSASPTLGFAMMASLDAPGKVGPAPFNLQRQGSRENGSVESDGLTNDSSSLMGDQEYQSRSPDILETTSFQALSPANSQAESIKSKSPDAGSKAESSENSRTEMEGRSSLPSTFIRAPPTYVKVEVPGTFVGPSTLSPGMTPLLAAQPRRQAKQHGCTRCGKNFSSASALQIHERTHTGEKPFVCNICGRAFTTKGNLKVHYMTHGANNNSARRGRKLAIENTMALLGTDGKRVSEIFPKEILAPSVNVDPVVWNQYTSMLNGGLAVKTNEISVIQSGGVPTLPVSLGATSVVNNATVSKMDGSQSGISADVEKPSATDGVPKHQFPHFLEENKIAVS
# Setting: 8-mer, flanks averaged, mean of replicates
Oligonucleotide,E-score
AAGCCTTA,0.0143
AACCCGTG,-0.294
GGCTGTGA,-0.177
ACTCTAGC,-0.092
AACAGCAT,0.0724

# Sample 3 — method: protein-binding microarray; molecule type: double-stranded DNA, one strand shown; sample: in vitro; tested at: 2200 nM top; setting: 60-bp whole probe; added: salmon DNA 0.4 mg/ml; relative to: random background probes; reading: higher = stronger binding; constant ends, left off below: GCCTAGCAC … GTCTTGATTCGCTTGACGCTGCTG
# Target: Interferon regulatory factor 7, full length, phosphomimetic (IRF7, Homo sapiens, UniProt Q92985, residues 1-503, S471D/S472D/S475D/S476D/S477D/S483D/S484D/S487D)
# Chain of UniProt Q92985 (whole entry, unmodified, looked up): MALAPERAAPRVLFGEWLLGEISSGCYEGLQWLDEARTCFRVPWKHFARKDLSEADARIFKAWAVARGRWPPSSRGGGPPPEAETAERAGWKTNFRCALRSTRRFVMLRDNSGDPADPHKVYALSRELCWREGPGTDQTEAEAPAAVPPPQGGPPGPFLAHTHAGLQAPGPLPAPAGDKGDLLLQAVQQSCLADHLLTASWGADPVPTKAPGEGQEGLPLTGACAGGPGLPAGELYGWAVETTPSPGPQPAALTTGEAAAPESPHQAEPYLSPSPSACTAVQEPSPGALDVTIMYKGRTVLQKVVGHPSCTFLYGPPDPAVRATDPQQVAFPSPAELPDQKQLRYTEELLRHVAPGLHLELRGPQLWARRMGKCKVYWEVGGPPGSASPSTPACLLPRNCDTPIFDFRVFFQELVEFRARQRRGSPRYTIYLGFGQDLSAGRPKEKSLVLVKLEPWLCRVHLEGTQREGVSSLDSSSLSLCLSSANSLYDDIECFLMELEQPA
Oligonucleotide,fitted relative affinity
TCTATTTTCTGAATGTCTTCGTGCTAG,4.45 z-score
TTAGGGTTCGACTTTCGGTTAGTGCTA,6.03 z-score
TTAGGACTGCACTATCGGTTAGTGCTA,0.126 z-score
TCAGTTATCACTTCCAAACTGTGCTAG,1.78 z-score
CTGATCCTTCATTTGAAAGAGTGCTAG,1.14 z-score
ATATATGTGTATATATAATAGTGCTAG,0.373 z-score
GGCGGTTTCGGTTCCGGGACGTGCTAG,11.8 z-score
GACGATATCGGTCTCGAGACGTGCTAG,0.414 z-score
TTAGGACTGGGACTGGGTTCGTGCTAG,-0.638 z-score

# Single results of other studies
Substance,target,assay,system,conditions,scale,measurement,result
"PhoQ, residues 284 288 289 292 302 303 TSTLRA","PhoP, residues 12 14 15 18 19 SHWTV (Escherichia coli, UniProt P23836)","Sort-seq, refers to: YFP reporter",E. coli,"PhoQ-PhoP variant library, added: 10 µM Mg2+","relative to: high Mg2+ state, higher = stronger signaling",fold induction,5.26

# Excerpt of the above (sample 3):
Oligonucleotide,fitted relative affinity
TCTATTTTCTGAATGTCTTCGTGCTAG,4.45 z-score
TCAGTTATCACTTCCAAACTGTGCTAG,1.78 z-score
TTAGGACTGGGACTGGGTTCGTGCTAG,-0.638 z-score
